Measured values gathered from unrelated publications.
Lines come from different studies, so protocols differ. Several values in a cell are separate wells, animals, samples, runs or records. ± marks the error that the study gave.

For CC(C)C(=O)OC1O[C@@H]2O[C@@]3(C)CC[C@H]4[C@H](C)CCC([C@H]1C)[C@@]24OO3 (stereo partly drawn), the dead embryos was 2 count (Tg(fli1:EGFP) zebrafish embryos; 0.5 µg/mL, up to 48 hpf).
For O=P([O-])([O-])Oc1ccc(-c2cc(=S)ss2)cc1.[Na+].[Na+], “parent drug release” read “not detected” (item: astaxanthin; saline; 12 h, 37 °C).
With [11CH3]n1c(=O)n(CCCO)c(=O)c2c1nc(Oc1cccc(OC(F)(F)F)c1)n2Cc1ccc(Cl)cc1 the tracer uptake was 0.43 ± 0.07 %ID/g (ex vivo biodistribution; Sprague Dawley rat, thymus; 60 min post injection).
CC[C@H](C)[C@H](NC(=O)[C@H](CCCNC(=N)N)NC(=O)[C@H](CCC(N)=O)NC(=O)[C@@H](NC(=O)[C@@H](NC(=O)[C@H](CCCNC(=N)N)NC(=O)[C@@H](N)CCCCN)[C@@H](C)CC)C(C)C)C(=O)N[C@@H](CCCCN)C(=O)N[C@H]1CC(=O)N([C@@H](Cc2ccccc2)C(=O)N[C@@H](CC(C)C)C(=O)N[C@@H](CCCNC(=N)N)C(N)=O)C1=O gave a compound remaining of roughly 5% (chemical stability, HPLC; human, serum; 50 µM, 15 min).
CCc1c2c(nc3ccc(OC4OC(C(=O)O)C(O)C(O)C4O)cc13)-c1cc3c(c(=O)n1C2)COC(=O)C3(O)CC (stereo not drawn) has a Cmax of 18 ng/mL (human patients, plasma; intravenous, 24 mg/m^2 of parent drug).
Under “subjects with any adverse event”, CC(C)[C@H](NC(=O)CNC(=O)[C@H](CCC(N)=O)NC(=O)[C@H](C)N)C(=O)O is recorded as 16.7% (human; intravenous infusion, 15 mg/kg/h, 2 h infusion).
With C[C@H]1C(=O)O[C@@H]2O[C@@]3(C)CC[C@@H]4[C@@]2(OO3)[C@H]1CC[C@]4(C)O the free AUC(0-t) was 0.799 ± 0.23 µM·h (healthy Chinese human; oral, dose not given, day 1).
With CC[C@H](C)[C@H](NC(=O)[C@H](Cc1c[nH]c2ccccc12)NC(=O)[C@H](CCCCN)NC(=O)[C@@H](NC(=O)[C@H](CC(C)C)NC(=O)[C@H](CCCCN)NC(=O)CNC(=O)[C@@H](NC(=O)[C@@H](NC(=O)[C@H](CO)NC(=O)[C@@H](NC(=O)[C@@H](NC(=O)[C@H](CCCCN)NC(=O)[C@H](CCC(N)=O)NC(=O)[C@H](C)NC(=O)[C@H](CCSC)NC=O)[C@@H](C)CC)[C@@H](C)CC)[C@@H](C)O)[C@@H](C)CC)C(C)C)C(=O)N[C@H](C(=O)N[C@@H](CCCCN)C(=O)N[C@H](C(=O)N[C@H](C(=O)N[C@@H](CC(N)=O)C(=O)N[C@@H](CCCCN)C(=O)N[C@@H](Cc1ccccc1)C(=O)N[C@H](C(=O)N[C@@H](CCCCN)C(=O)N[C@@H](CCCCN)C(=O)O)[C@@H](C)O)C(C)C)[C@@H](C)O)[C@@H](C)CC (racemic) the helicity was roughly 20% (circular dichroism; phosphate buffer 10 mM; 1 to 5 µM, pH 7.5, approximate).
COC(=O)C[C@H](NC(=O)[C@H](C)NC(=O)[C@@H](NC(=O)[C@H](CC(=O)OC)NC(=O)[C@@H](NC(=O)c1ccc2ccccc2n1)C(C)C)C(C)C)C(=O)COc1c(F)cccc1F gave a body weight of 20.9 ± 0.67 g (rat pups; 1 mg/kg, 48 h).
CC[C@H](C)C(=O)N1CCC(NC(=O)Nc2ccc(OC(F)(F)F)c(F)c2)CC1 — result for “participants with any Treatment‐Related TEAE”: 0% (healthy volunteers, both sexes; oral, 8 mg single dose, fed state).
COc1cc(NC(=O)C(=O)c2c(C)n(Cc3ccc(Cl)cc3)c3ccc(C)cc23)ccn1 has a C0 of 2880 ng/mL and 2610 ng/mL and 2490 ng/mL and 2600 ng/mL and 2210 ng/mL (female cynomolgus monkey, plasma; intravenous, 1 mg/kg).
The Cmax of [2H]C([2H])([2H])C([2H])([2H])C([2H])([2H])OC(C(=O)OC1CCNCC1)(c1ccccc1)c1ccccc1 is reported as 22 ng/mL (healthy Japanese male subjects, plasma; oral, 10 mg once daily, day 1, fed, mean).
Under “parent drug release”, C#Cc1c(F)ccc2cc(O)cc(-c3ncc4c(N5CC6CCC(C5)N6C(=O)OCCCCC)nc(OC[C@@]56CCCN5C[C@H](F)C6)nc4c3F)c12 is recorded as “not detected” (mouse whole blood; 60 min).
With COC(=O)C[C@](O)(CCCC(C)(C)OC(C)=O)C(=O)O[C@@H]1C(OC)=C[C@]23CCCN2CCc2cc4c(cc2[C@H]13)OCO4 the tissue concentration was 16.8 ng/mL (CD1 mouse, large intestine; oral, 1 mg/kg, 8 h).
CCN(CC)CCOc1ccc(-c2nnn(Cc3ccc(OC)cc3)c2N)cc1 gave an oral bioavailability of 52.3% (CD-1 mouse, male; oral, 25 mg/kg).
For CC(C)C[C@H](NC(=O)[C@H](CCCCN)NC(=O)[C@H](CCC(=O)O)NC(=O)[C@H](C)NC(=O)[C@@H](NC(=O)[C@H](CCCCN)NC(=O)[C@H](CC(=O)O)NC(=O)[C@H](Cc1ccc(O)cc1)NC(=O)[C@H](Cc1ccccc1)NC(=O)[C@H](C)NC(=O)[C@H](CCCCN)NC(=O)[C@H](CC(C)C)NC(=O)[C@H](Cc1c[nH]c2ccccc12)NC(=O)[C@@H](N)CC(=O)O)C(C)C)C(=O)N[C@@H](CCCCN)C(=O)N[C@@H](CCC(=O)O)C(=O)N[C@@H](C)C(=O)N[C@@H](Cc1ccccc1)C(=O)N1CCC[C@H]1C(=O)N[C@@H](CC(=O)O)C(=O)N[C@@H](Cc1c[nH]c2ccccc12)C(=O)N[C@@H](C)C(=O)N[C@@H](CCCCN)C(=O)N[C@@H](C)C(=O)N[C@@H](C)C(=O)N[C@@H](Cc1ccc(O)cc1)C(=O)N[C@@H](CC(=O)O)C(=O)N[C@@H](CCCCN)C(=O)N[C@@H](C)C(=O)N[C@@H](C)C(=O)N[C@@H](CCC(=O)O)C(=O)N[C@@H](CCCCN)C(=O)N[C@@H](C)C(=O)N[C@@H](CCCCN)C(=O)N[C@@H](CCC(=O)O)C(=O)N[C@@H](C)C(=O)N[C@@H](C)C(=O)O, the Tmax was 0 h (cynomolgus monkey female, plasma; intravenous infusion, 75 mg/kg, day 1, 30 min infusion).
For CSCC[C@@H]1NC(=O)[C@@H]2CSSC[C@H](NC(=O)[C@H](CO)NC(=O)[C@H](C)N)C(=O)N[C@@H](CCCNC(=N)N)C(=O)N[C@@H]([C@@H](C)O)C(=O)N3CCC[C@H]3C(=O)N[C@@H](CCCCN)C(=O)N[C@@H](CC(=O)O)C(=O)N[C@H]3CSSC[C@H](NC(=O)[C@H](CCCCN)NC(=O)[C@H](CCCNC(=N)N)NC(=O)[C@H](CC(N)=O)NC1=O)C(=O)N[C@@H](CCCCN)C(=O)N[C@H]1CSSC[C@H](NC(=O)[C@@H]4CCCN4C(=O)[C@H](CC(=O)O)NC(=O)[C@H](C)NC3=O)C(=O)N[C@@H](C)C(=O)N[C@@H](CCCCN)C(=O)N[C@@H](CCC(=O)O)C(=O)N[C@@H]([C@@H](C)O)C(=O)NCC(=O)N[C@@H](CSSC[C@@H](C(N)=O)NC(=O)[C@H](CCCNC(=N)N)NC(=O)[C@H](CC(N)=O)NC1=O)C(=O)N1CCC[C@H]1C(=O)N[C@@H](Cc1ccc(O)cc1)C(=O)NCC(=O)N[C@@H](CCCCN)C(=O)N2, the Chloride was 99.4 mmol/L (DA rat pristane-induced arthritis, serum; subcutaneous, 0.1 mg/kg every other day, 21 days).
O=C(NC1CCCCC1)Oc1ccc(O)c(-c2ccccc2)c1: “log hydrolysis rate constant” -0.94 (rat liver S9 fraction; together with: NADPH-regenerating system).
CC[C@H](C)[C@H](NC(=O)[C@H](CCCNC(=N)N)NC(=O)[C@H](Cc1c[nH]c2ccccc12)NC(=O)[C@H](CCCNC(=N)N)NC(=O)[C@@H](NC(=O)[C@H](CC(C)C)NC(=O)[C@H](CC(C)C)NC(=O)[C@H](CCCNC(=N)N)NC(=O)[C@H](Cc1c[nH]c2ccccc12)NC(=O)[C@@H](N)CCCCN)[C@@H](C)CC)C(=O)N[C@@H](CCC(N)=O)C(=O)N[C@@H](CCCCN)C(N)=O — result for toxicity: “not toxic” (mouse; dose not given).
With NC(=S)N/N=C/c1ccc(OCc2cccc(F)c2)cc1 the Papp was 4.08 ×10⁻⁶ cm/s (PAMPA-BBB; pH 7.4).
Under “time to heart signal disappearance”, C[C@H](O)[C@@H](NC(=O)[C@H]1CCCN1C(=O)[C@@H](CCCCN)NC(=O)[C@@H](CO)NC(=O)[C@@H](Cc1ccc(O)cc1)NC(=O)[C@@H](CC(N)=O)NC(=O)CCOCCOCCOCCNC(=O)CN1CCN(CC(=O)O)CCN(CC(=O)O)CCN(CC(=O)O)CC1)C(=O)N[C@H](CC(=O)O)C(=O)N[C@H](CCCNC(=N)N)C(=O)N[C@H](CCC(N)=O)C(=O)N[C@H](Cc1ccc(O)cc1)C(=O)N[C@H](Cc1c[nH]cn1)C(=O)N[C@H](Cc1ccccc1)C(N)=O [copper-64 labelled] is recorded as 4 to 6 min (dynamic PET; C57BL/6J mice; intravenous, dose not given).

Repeated from above:
With CC[C@H](C)[C@H](NC(=O)[C@H](Cc1c[nH]c2ccccc12)NC(=O)[C@H](CCCCN)NC(=O)[C@@H](NC(=O)[C@H](CC(C)C)NC(=O)[C@H](CCCCN)NC(=O)CNC(=O)[C@@H](NC(=O)[C@@H](NC(=O)[C@H](CO)NC(=O)[C@@H](NC(=O)[C@@H](NC(=O)[C@H](CCCCN)NC(=O)[C@H](CCC(N)=O)NC(=O)[C@H](C)NC(=O)[C@H](CCSC)NC=O)[C@@H](C)CC)[C@@H](C)CC)[C@@H](C)O)[C@@H](C)CC)C(C)C)C(=O)N[C@H](C(=O)N[C@@H](CCCCN)C(=O)N[C@H](C(=O)N[C@H](C(=O)N[C@@H](CC(N)=O)C(=O)N[C@@H](CCCCN)C(=O)N[C@@H](Cc1ccccc1)C(=O)N[C@H](C(=O)N[C@@H](CCCCN)C(=O)N[C@@H](CCCCN)C(=O)O)[C@@H](C)O)C(C)C)[C@@H](C)O)[C@@H](C)CC (racemic) the helicity was roughly 20% (circular dichroism; phosphate buffer 10 mM; 1 to 5 µM, pH 7.5, approximate).
